# Measurements from different studies.
# Numbered parts are unrelated; each lists some results of a single study. Changes are numbered by the printed parent chain.

# Set 1 — target: CCNE1, cyclin fold, Cln2 fusion (human); technique: yeast growth competition, sequencing; sample: yeast; notes: weak parent motif; reference: not given; reading: higher = stronger binding
# Starting sequence: MICAL3 docking peptide (human); LQLRRQLSFSEDS
Change,normalised enrichment score
LQNRRQLSFSEDS [L3N],-0.0182
LQLRRALSFSEDS [Q6A],1.11
LQERRQLSFSEDS [L3E],0.177
LQLRRQLSQSEDS [F9Q],0.0509
LQLRRQASFSEDS [L7A],0.219
LQLRRQLSFIEDS [S10I],0.0124
LQLRRQLSKSEDS [F9K],0.153
LGLRRQLSFSEDS [Q2G],0.892
LQLRRQLSFSEVS [D12V],1.61
LQLRRQLSFSPDS [E11P],0.495
LQLREQLSFSEDS [R5E],0.151
LQLRVQLSFSEDS [R5V],0.176
LQLRRQLSFSEYS [D12Y],0.722
LQLRRQVSFSEDS [L7V],0.26
LQLNRQLSFSEDS [R4N],0.37
LQLRRQLVFSEDS [S8V],0.687
LQMRRQLSFSEDS [L3M],1.57
LQLRRQLSDSEDS [F9D],-0.312
LQLRRQLSFPEDS [S10P],0.848
LQLRRQLSSSEDS [F9S],-0.534
LQLFRQLSFSEDS [R4F],0.473
LQLRRKLSFSEDS [Q6K],2.54
LQLVRQLSFSEDS [R4V],1.38
LQKRRQLSFSEDS [L3K],0.0853
LQLRRQLQFSEDS [S8Q],0.536

# Set 2 — technique: DHFR PCA, deep sequencing; sample: yeast; together with: (+)-ABA 1.4 µM; reference: wild-type fitted maximum; reading: higher = stronger binding
# Target: ABI1, truncated, D143A, DHFR fusion (Arabidopsis thaliana)
# Notes: methotrexate growth selection, single substitutions
# Starting sequence: PYL1, truncated, DHFR fusion (Arabidopsis thaliana); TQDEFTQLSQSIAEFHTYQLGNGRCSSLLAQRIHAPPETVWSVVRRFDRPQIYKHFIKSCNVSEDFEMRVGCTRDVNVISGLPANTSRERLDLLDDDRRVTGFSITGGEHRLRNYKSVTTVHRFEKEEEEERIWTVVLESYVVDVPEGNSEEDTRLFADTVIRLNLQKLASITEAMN; partner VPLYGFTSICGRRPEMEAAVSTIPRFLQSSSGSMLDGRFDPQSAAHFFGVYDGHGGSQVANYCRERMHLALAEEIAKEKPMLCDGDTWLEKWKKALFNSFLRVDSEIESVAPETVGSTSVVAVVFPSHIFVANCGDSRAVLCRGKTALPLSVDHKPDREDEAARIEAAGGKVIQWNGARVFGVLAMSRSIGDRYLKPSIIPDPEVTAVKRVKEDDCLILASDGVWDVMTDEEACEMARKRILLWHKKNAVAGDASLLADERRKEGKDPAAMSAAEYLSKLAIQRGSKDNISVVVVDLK
Change,relative binding score [%]
E38P,13.5
Q19H,65.1
E174Y,-1.94
T119E,-1.58
I79D,-10.3
V137H,0.225
M176G,47.2
E14K,22.1
L93R,38.3
L82D,1.72
Q51L,-3.13
L138G,-4.45
A158Q,0.925
Q51K,14

# Set 3 — technique: RNA Bind-n-Seq; molecule type: RNA; sample: in vitro; concentration: 365 nM; reference: no-protein control; reading: higher = stronger binding
# Target: RNA binding protein fox-1 homolog 2, RRM domain, GST-SBP tag (RBFOX2, Homo sapiens, UniProt O43251-10, residues 100-194)
# Notes: natural RNA segment, single round, ends assumed
# Target sequence (chain): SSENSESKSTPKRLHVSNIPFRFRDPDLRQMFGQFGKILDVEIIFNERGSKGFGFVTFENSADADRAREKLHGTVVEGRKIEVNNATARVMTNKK
Sequence,RBNS enrichment (R)
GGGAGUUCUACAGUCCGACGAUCAAGUGACAGACGUCUACAGCAUUCCAGCUAUGAUCAUGUUGAUUCUGAAAUCAUGUAAAUUAAGAUUUGUUAGGCUGUUUUUUUUUUAAAUAAACCAUCUUUUUAUUGAUUGGAAUUCUCGGGUGCCAA,0.884
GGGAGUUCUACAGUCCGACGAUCUCCACCUUUUUGUCUCUUUCUCCCAGGAUCUUCCCUCUGUCUCCCAGACUGUCUCCCAUCUGUUUCUCUCCCUCCUCCCAGAGCUGUGAGGAUGAAGGCAAGACUGAUUGUGGAAUUCUCGGGUGCCAA,0.869
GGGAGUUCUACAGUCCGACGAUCUUUUCUACCUAACUUUUCAAGUAGGAGCCUCUGCCUUUAGUCAGUAGUCUUUGAAGCAAGUAUCCUGAUAGUUUAAGGCUUUGCAAUUUUAACUCCUUGAGGCCAGGCCAUGGAAUUCUCGGGUGCCAA,0.388
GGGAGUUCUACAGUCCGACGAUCGUCCUCACACUCCUGGAUCACUGAGCAGAAUGAACAUUUUCUCCAGCCUCUGAGACUAUCGCUCUUAACCAUGGAAAAGCUCAAAAUAUUCUUGCCAUUACUCAGUGUUCUGGAAUUCUCGGGUGCCAA,0.465
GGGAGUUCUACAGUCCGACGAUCACAUGUUAAAAAGCAAUUUAAGAUGAAAAAACUAGCUUUACAGUGUGUACACUUUUUCUCUAAAAUAAACUUUUGUGGCUUUAGUGUCUUAGAAGGAGAGUCCUAACAUGUGGAAUUCUCGGGUGCCAA,0.425
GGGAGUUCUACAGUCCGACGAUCAGCUCAAAUAAUCCUGAUGCAAUAUGUAUUUAGGAUAAUUUUUAAAUGGCUAAAUAUGACAUGACUGUAUUAUAGCUAUAUUUCUGAGGCUUUUUUUGUAUUUUAUUAAUUGGAAUUCUCGGGUGCCAA,1.15
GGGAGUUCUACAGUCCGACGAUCGUGUAUUUGUAUAUUUUAGGUUAAAAAGACUUUAUAUGUUUCAUUCACUUUCCCAUGAAACUGCUGACAGACAGAAGUCACUAAAAUAAGGAAUUUUAAUGUUACUUUUUUGGAAUUCUCGGGUGCCAA,0.595
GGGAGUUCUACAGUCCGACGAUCUGGGCUACUUGUGACUAGACUUUUAAACUUUGCUCUUUCAAGCAGAAGCCUGGUUUCUGGGAGAACACUGCACAGCGAUUUCUUUCCCAGGAUUUACACAACUUUAAAGGUGGAAUUCUCGGGUGCCAA,0.222

# Set 4 — technique: protein binding microarray; molecule type: double-stranded DNA, one strand shown; sample: in vitro; concentration: not given; reference: not given; reading: higher = stronger binding
# Target: Histone acetyltransferase KAT6A, winged helix 1, GST fusion (KAT6A, Homo sapiens, UniProt Q92794, residues 1-85)
# Notes: 8-mer, flanks averaged, mean of 2 arrays, mostly near background
# Target sequence (chain): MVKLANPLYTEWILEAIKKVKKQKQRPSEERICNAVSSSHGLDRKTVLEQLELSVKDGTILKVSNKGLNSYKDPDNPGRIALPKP
Sequence,E-score
CTTATGGC,-0.0657
CCGGATTC,-0.00287
CTGATACC,-0.116
ACTCACTC,-0.0562
CTTGCGAA,0.162
ACAGTGCC,-0.0416
TACCTATA,-0.2
CATATGGG,-0.0336
CCTGGCGA,0.171
GATGTTGA,-0.107
CACTAAAG,-0.156
AATTATTG,-0.162
ATATTAGC,0.0293
ATCTACAT,-0.304
ACTCTGAT,0.0128
CGGGGCTA,0.0786
GACGCCTA,0.116
GTAATCTA,-0.029
AATGCGCC,0.323
GCGGTTTA,0.256
CGTTAACG,0.206
ATACGCTC,0.08
GGACGAAA,0.0489
CAAATATA,-0.245

# Set 5 — technique: protein-binding microarray; molecule type: double-stranded DNA, one strand shown; sample: in vitro; concentration: not given; reading: higher = stronger binding
# Target: Protein C-ets-1 (ETS1, Homo sapiens, UniProt P14921, residues 1-441, full length assumed)
# Sequence of UniProt P14921 (whole entry, looked up): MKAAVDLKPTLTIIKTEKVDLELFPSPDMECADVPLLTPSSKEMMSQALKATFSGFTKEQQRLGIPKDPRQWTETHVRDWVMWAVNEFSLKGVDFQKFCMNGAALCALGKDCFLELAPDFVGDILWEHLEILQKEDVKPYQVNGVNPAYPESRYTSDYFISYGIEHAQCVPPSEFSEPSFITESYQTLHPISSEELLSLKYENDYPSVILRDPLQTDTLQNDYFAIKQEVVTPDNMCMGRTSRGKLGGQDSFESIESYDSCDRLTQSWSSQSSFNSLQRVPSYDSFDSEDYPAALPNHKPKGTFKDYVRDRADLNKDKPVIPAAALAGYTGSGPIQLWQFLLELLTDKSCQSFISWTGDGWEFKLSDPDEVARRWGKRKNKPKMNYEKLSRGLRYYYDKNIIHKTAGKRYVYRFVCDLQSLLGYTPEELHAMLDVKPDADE
# Notes: k-mer, scored over probes, only values ≥0.25
Sequence,E-score
AAATTTCC,0.414
GTTGCGGA,0.315
GAATCGGA,0.301
CCACACAC,0.291
ATTTTCCG,0.425
CCTCCGGA,0.398
AGGAAACA,0.408
ACCCGGGA,0.309
ACTCATCC,0.251
CCGGCCAC,0.3
CCGGTACA,0.335
GGATGGTA,0.274
GGGAGGAA,0.385
CGGAATAC,0.255
CTTCCCGC,0.401
AGTGCCGG,0.263
ACGGGAAG,0.406
GGCAGGAA,0.434
GGAAGTCC,0.434
CGGGATGC,0.338
CGGAAACA,0.473
ACCTTCCT,0.315
CCACCACA,0.278
GTACGGAA,0.353
CCCCGTCC,0.293
